Results from different studies.
A part holds a random share of what one study measured.

Series 1
Target: PABPC1L2, full length, GST fusion (mouse, UniProt A0ABA7IW68)
Method: RNAcompete
Molecule type: RNA
Matrix: in vitro
Tested at: 20 nM
Setting: 7-mer, probes averaged, single round
Relative to: mean of 7-mers
Direction: higher = stronger binding
Endpoint: 7-mer Z-score
Target sequence (chain): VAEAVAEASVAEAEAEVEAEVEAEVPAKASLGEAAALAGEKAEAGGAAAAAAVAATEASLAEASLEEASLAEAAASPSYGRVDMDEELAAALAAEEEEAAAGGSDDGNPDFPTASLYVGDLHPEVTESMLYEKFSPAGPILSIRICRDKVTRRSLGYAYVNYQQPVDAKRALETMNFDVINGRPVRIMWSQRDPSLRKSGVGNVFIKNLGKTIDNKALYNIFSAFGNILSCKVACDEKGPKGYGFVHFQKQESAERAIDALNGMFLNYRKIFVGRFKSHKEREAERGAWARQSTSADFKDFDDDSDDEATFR
UGGAGUG: -0.157
GAGUAAG: -0.151
UUGCUCU: -0.463
UUGCGUU: -0.382
GACUGGC: -0.119
GAAUUAU: -0.177
UGGUACG: 0.0424
UAGAUAU: -0.139

Series 2
Target: Replicase polyprotein 1ab, polymerase (rep, Severe acute respiratory syndrome coronavirus 2, UniProt P0DTD1)
Observed: enzyme activity
Mode: inhibitor
Tested at: 20 µM
Endpoint: inhibition
COC(=O)c1ccccc1NC(=O)c1ccc(F)cc1: -4.62%
Cc1ccc(/C=N/NC(=O)c2ccccc2Oc2ccccc2)o1: 3.7%
O=C(O)c1ccc(S(=O)(=O)N(Cc2ccc(OC(F)(F)F)cc2)c2ncc(C(F)(F)F)cc2Cl)cc1: -2.66%
O=C1CCC(N2C(=O)c3ccccc3C2=O)C(=O)N1 (stereo not shown): -1.36%
C1CCC(NC2CCCCC2)CC1: 0.14%
CCOc1c2c(c(OCC)c3ccccc13)C(=O)N(c1ccc(CC(=O)NS(=O)(=O)c3ccccc3)cc1)C2: -0.87%
O=C(O)c1cc2occc2[nH]1: 2.49%
CO[C@H]1CC[C@@H](C(=O)c2ccc3nc4c(cc3c2)CCCO4)CC1: 3.15%
NC(=O)[C@@H](CCC(F)(F)F)N(Cc1ccc(-c2ncon2)cc1F)S(=O)(=O)c1ccc(Cl)cc1: 3.97%
Fc1ccc2nc(CCC#Cc3ccccn3)cn2c1: 2.81%
c1ccc2c(CCNc3ccc(Nc4ccncc4)cc3)c[nH]c2c1: 6.01%
CC#CC(=O)N1CC[C@@H](n2c(=O)n(-c3ccc(Oc4ccccc4)cc3)c3c(N)ncnc32)C1: -1.24%
CCc1nc(-c2cccc(C)c2)c(-c2ccnc(NC(=O)c3ccccc3)c2)s1: -1.79%
Cc1[nH]c(/C=C2\C(=O)Nc3ccc(S(=O)(=O)Cc4c(Cl)cccc4Cl)cc32)c(C)c1C(=O)N1CCC[C@@H]1CN1CCCC1: 15.2%

Series 3
Organism: SARS-CoV-2
Observed: cytopathic effect
Cells: Vero E6
Tested at: 10 µM
Endpoint: inhibition
O=C(NC(=S)N1CCCc2ccccc21)c1ccccc1: -3.2%
CCN(CC)C(=S)[S-].O.O.O.[Na+]: -0.14%
Oc1cc2c(cc1C(c1ccc(C(F)(F)F)cc1)N1CCOCC1)OCO2 (stereo not shown): 6%
CCOC(=S)SSC(=S)OCC: 6.1%
COc1ccc2[nH]c([S+]([O-])Cc3ncc(C)c(OC)c3C)nc2n1 (stereo not shown): -5.5%

Series 4
Cell line: HEK-293T
Observed: pseudovirus infection
Method: FDA-approved drug library screen
Organism: VSV pseudotyped with SARS-CoV-2 spike
Tested at: 10 µM
Time: 16 h
Relative to: vehicle-treated
Endpoint: GFP-positive cells
CCC1=C(C)CN(C(=O)NCCc2ccc(S(=O)(=O)NC(=O)N[C@H]3CC[C@H](C)CC3)cc2)C1=O: 83%
CO[C@H]1C[C@@H]2CC[C@@H](C)[C@@](O)(O2)C(=O)C(=O)N2CCCC[C@H]2C(=O)O[C@H]([C@H](C)C[C@@H]2CC[C@@H](O)[C@H](OC)C2)CC(=O)[C@H](C)/C=C(\C)[C@@H](O)[C@@H](OC)C(=O)[C@H](C)C[C@H](C)/C=C/C=C/C=C/1C: 88.7%
O=C(O)c1ccc(-n2nc(-c3ccccc3O)nc2-c2ccccc2O)cc1: 72.6%
CCC1(C)CC(=O)NC1=O (stereo not shown): 74.6%

Excerpt of the above (series 3):
CCN(CC)C(=S)[S-].O.O.O.[Na+]: -0.14%
COc1ccc2[nH]c([S+]([O-])Cc3ncc(C)c(OC)c3C)nc2n1 (stereo not shown): -5.5%
CCOC(=S)SSC(=S)OCC: 6.1%
O=C(NC(=S)N1CCCc2ccccc21)c1ccccc1: -3.2%
